Results pooled from the literature.
Protocols differ between the studies behind these lines. Numbers after ± are the reported error.

SMILES | assay | system | setting | endpoint | result
CC(=O)NC(Cc1ccc(Br)c(Cl)c1)C(=O)N[C@@H](C)C(=O)N1CCC[C@H]1C(=O)N1CCC[C@H]1C(=O)N[C@@H](CCC(=O)O)C(=O)N[C@@H](Cc1c[nH]cn1)C(=O)N[C@@H](CO)C(=O)N[C@H](C(=O)N[C@@H](C)C(N)=O)[C@@H](C)OP(=O)(O)O (stereo partly drawn) | metabolic stability | human, liver microsomes | 1 µM, pH 7.4 | microsomal CLint | 39 µL/min/mg
CN(C)C(CNC(=O)Nc1cc(C(F)(F)F)ccc1N1CCOCC1)c1ccncc1 (stereo not drawn) |  | mouse, serum | intraperitoneal, 120 mg/kg single dose | creatine kinase | 8990 U/L
Cc1ccc(/C=C/C(=O)O)cc1-c1cc2c(cc1C)C(C)(C)CCC2(C)C |  | Sprague-Dawley rat, male | oral, 100 mg/kg, 2 h, sesame oil vehicle | blood triglycerides | 118 ± 21.6 mg/dL
C=C(CC)C(=O)c1ccc(OCC(=O)NCCNC(=O)COc2ccc(C(=O)C(=C)CC)c(Cl)c2Cl)c(Cl)c1Cl |  | nude mouse | groin injection, 1.7 µg/g, two weeks, body weight, organ pathology | toxicity | not toxic
CC[C@@]1(O)C(=O)OCc2c1cc1n(c2=O)Cc2c-1nc1cc(F)c(C)c3c1c2[C@@H](NC(=O)CCCN)CC3 |  | PAMPA | 5 µM, 4 h, pH 5 | Papp | < 0.1 ×10⁻⁶ cm/s
CC[C@H](C)C(=O)N1CCC(NC(=O)Nc2ccc(OC(F)(F)F)c(F)c2)CC1 |  | healthy volunteers | oral, 24 mg single dose, device site dermatitis | subjects with dermatitis TEAE | 50%
CCN(CC)CCOc1ccc(-c2nnn(Cc3ccc(OC)cc3)c2N)cc1 |  | CD-1 mouse, male | oral, 25 mg/kg | oral bioavailability | 52.3%
O=C(NCCCCCCCn1ccc2ccccc21)Oc1ccccc1 |  | porcine plasma | 20 µM, 30 min | parent remaining | 39 ± 7%
COC(=O)C[C@](O)(CCCC(C)(C)OC(C)=O)C(=O)O[C@@H]1C(OC)=C[C@]23CCCN2CCc2cc4c(cc2[C@H]13)OCO4 |  | CD1 mouse, brain | subcutaneous, 1 mg/kg, 24 h, below quantification limit 1.00 ng/mL | tissue concentration | not detected
Cc1nc2ccccc2n1CC(=O)NO |  | Wistar rat, female | oral, 100 mg/kg, 48 h | acute toxicity | not toxic
O=S(=O)(O)C(F)(F)C(F)(F)OC(F)(C(F)(F)F)C(F)(F)OC(F)C(F)(F)F (stereo not drawn) |  | human, serum |  | age effect on concentration | 0.017 ng/mL per year
CC(C)[C@H](NC(=O)CNC(=O)[C@H](CCC(N)=O)NC(=O)[C@H](C)N)C(=O)O |  | human | 10 mg/kg single dose | subjects with serious adverse events | 0%
CC(C)C[C@@H](NC(=O)[C@@H](CCCCN)NC(=O)CNC(=O)CNC(=O)[C@@H]1CSSC[C@H](N)C(=O)NCC(=O)N[C@@H](CCCNC(=N)N)C(=O)N[C@@H](CCCNC(=N)N)C(=O)N[C@@H](C)C(=O)NCC(=O)NCC(=O)N[C@@H](CO)C(=O)N1)C(=O)N[C@H](C)C(=O)N[C@H](CCCCN)C(=O)N[C@H](CC(C)C)C(=O)N[C@H](C)C(=O)N[C@H](CCCCN)C(=O)N[C@H](CCCCN)C(=O)N[C@H](CC(C)C)C(=O)N[C@H](C)C(=O)N[C@H](CCCCN)C(=O)N[C@H](CC(C)C)C(=O)N[C@H](C)C(=O)N[C@H](CCCCN)C(=O)O |  | cynomolgus monkey, plasma | intravenous, 9 mg/kg, infusion | Vd | 2.58 L
COC(=O)C[C@H](NC(=O)[C@H](C)NC(=O)[C@@H](NC(=O)[C@H](CC(=O)OC)NC(=O)[C@@H](NC(=O)c1ccc2ccccc2n1)C(C)C)C(C)C)C(=O)COc1c(F)cccc1F |  | rat pups | 1 mg/kg, 1 h | heart rate | 344 ± 12 beats/min
CC(=O)OC1O[C@@H]2O[C@@]3(C)CC[C@H]4[C@H](C)CCC([C@H]1C)[C@@]24OO3 (stereo partly drawn) |  | Tg(fli1:EGFP) zebrafish embryos | 50 µg/mL, up to 48 hpf | dead embryos | 4 count
O=c1cc(-c2ccccc2)oc2c(Br)c(O)c(O)c(O)c12 |  | C57BL/6 mouse, plasma | oral, 50 mg/kg, single dose | MRT(0-inf) | 5.7 h
O=C(O[C@@H]1[C@@H](O)[C@H](Oc2cc(O)c3c(c2)O[C@H](c2ccccc2)CC3=O)O[C@@H]2COC(=O)c3cc(O)c(O)c(O)c3-c3c(cc(O)c(O)c3O)C(=O)O[C@@H]12)c1cc(O)c(O)c(O)c1 |  | healthy mouse | 25 µg/g | toxicity | not toxic
COc1cc(NC(=O)C(=O)c2c(C)n(Cc3ccc(Cl)cc3)c3ccc(C)cc23)ccn1 |  | cynomolgus monkey, female, plasma | intravenous, 1 mg/kg | C0 | 2020 ng/mL
O=P1(NCCCl)NCCCO1 (stereo not drawn) |  | rat, plasma | intravenous, 10 mg/kg CP, together with: ketoconazole 0 mg/kg | MRT(0-t) | 3.9 ± 0.223 h
CCc1c2c(nc3ccc(OC4OC(C(=O)O)C(O)C(O)C4O)cc13)-c1cc3c(c(=O)n1C2)COC(=O)C3(O)CC (stereo not drawn) |  | human patients, plasma | intravenous, 133 mg/m^2 of parent drug | Cmax | 163 ng/mL
CC(C)C[C@@H](NC(=O)[C@H](NC(=O)[C@H]1CCCN1)[C@H](C)O)C(=O)N[C@H](Cc1c[nH]cn1)C(=O)N[C@@H](C(=O)N[C@H](Cc1c[nH]cn1)C(=O)N[C@H](CC(N)=O)C(=O)N[C@H](CCCNC(=N)N)C(=O)N[C@H](CCCNC(=N)N)C(=O)N[C@H](CCCNC(=N)N)C(=O)N[C@H](CCCNC(=N)N)C(=O)N[C@H](CCCNC(=N)N)C(N)=O)[C@H](C)O |  | Beagle dog | oral, 20 or 50 mg/kg single, 3 and 30 mg/kg daily, 3 months | tolerability | not toxic
